{"data": "Measurements of several laboratories", "note": "Numbers after ± are the reported error."}
{"SMILES": "Cc1ncsc1-c1ccc([C@H](C)NC(=O)[C@@H]2C[C@@H](O)CN2C(=O)[C@@H](NC(=O)CCCCCCC(=O)N2CCN(C[C@]3(C)CCC(c4ccc(Cl)cc4)=C(CN4CCN(c5ccc(C(=O)NS(=O)(=O)c6ccc(N[C@H](CCN7CCOCC7)CSc7ccccc7)c(S(=O)(=O)C(F)(F)F)c6)cc5)CC4)C3)CC2)C(C)(C)C)cc1", "assay": "item: Cdkn2a", "system": "naturally aged mice, fat", "conditions": "intraperitoneal, 5 mg/kg every 3 days", "quantity": "mRNA level", "result": "no effect"}
{"SMILES": "C=CC(=O)N1CCC(c2cc(Nc3cc4n(n3)CCOC4)c3ncnn3c2)C1 (single isomer, unassigned)", "tested on": "TMD8 wild type", "assay": "calcium flux, FLIPR", "conditions": "2 h preincubation, added: anti-IgM", "quantity": "maximum inhibition", "result": "26.2%"}
{"SMILES": "COC(=O)[C@@H]1C(C=Nc2ccccc2O)=Cc2cc3c(cc2[C@H]1c1cc(OC)c(OC)c(OC)c1)OCO3", "tested on": "Leishmania", "system": "mouse splenocytes", "how to read": "reference: CC50 over amastigote EC50", "quantity": "selectivity index", "result": "> 10.1"}
{"SMILES": "CCCCN(CCc1ccc(Cl)c(Cl)c1)C[C@H](O)COc1ccc(NS(C)(=O)=O)cc1", "assay": "neuroprotection, item: infarct volume", "system": "mouse, transient MCAO", "conditions": "intraperitoneal, 20 min before occlusion", "quantity": "ED50", "result": "< 1 mg/kg"}
{"SMILES": "CCOC(=O)C1=C(C)NC2=C(C(=O)CC(C)(C)C2)C1c1ccc(OCC(=O)NN=Cc2cccc(C=O)c2)cc1OCC(=O)NN=Cc1cccc(C=O)c1 (stereo not shown)", "tested on": "Bacillus megaterium", "system": "DSM 32", "conditions": "concentration not given, 24 h", "quantity": "inhibition zone diameter", "result": "5.5 ± 0.1 mm"}
{"SMILES": "COc1cc([C@@H]2c3cc4c(cc3[C@@H](CC(C)(C)O)[C@H]3COC(=O)[C@H]23)OCO4)cc(OC)c1OC", "tested on": "Leishmania", "system": "mouse splenocytes", "how to read": "reference: CC50 over amastigote EC50", "quantity": "selectivity index", "result": 1.1}
{"SMILES": "CC(=NN=c1[nH]c2cc(F)c(F)cc2n1C)c1ccc(F)cn1", "assay": "item: CD31", "system": "MDA-MB-231 xenograft, SCID mice", "conditions": "10 mg/kg/day", "how to read": "reference: vehicle", "quantity": "microvascular density reduction", "result": "40%"}
{"SMILES": "Cc1nn(C)c2c(C(C(=O)O)N3CC(OCCCCc4ccc5c(n4)NCCC5)C3)cccc12 (stereo not shown)", "system": "rat, pulmonary artery banding model", "quantity": "cardiomyocyte cross-sectional area", "result": "decreased"}
{"SMILES": "CCC1NC(=O)C(CCCNC(=N)N)NC(=O)C(C)(NC(=O)C(C)C)CCCCNC(=O)C(c2ccccc2)NC1=O (stereo not shown)", "assay": "immunoblot", "system": "MLL-AF9 leukaemia cells, mouse", "conditions": "dose not given, 4 days", "quantity": "global H3K4 methylation", "result": "no effect"}
{"SMILES": "COc1cc([C@@H]2c3cc4c(cc3C=C(C=O)[C@H]2C(=O)OCCCn2cnc3c(Cl)ncnc32)OCO4)cc(OC)c1OC", "tested on": "Leishmania", "system": "mouse splenocytes", "how to read": "reference: CC50 over amastigote EC50", "quantity": "selectivity index", "result": 0.7}
{"SMILES": "C[C@@H]1CN(C2CCC2)CC[C@H](O[C@H]2[C@@H](O)C[C@H](O[C@H]3[C@@H](O)C[C@H](O[C@H]4CC[C@@]5(C)[C@H](CC[C@@H]6[C@@H]5C[C@@H](O)[C@]5(C)[C@@H](C7=CC(=O)OC7)CC[C@]65O)C4)O[C@@H]3C)O[C@@H]2C)O1", "system": "rat hippocampal slices", "conditions": "1 µM, ~14 min, trace 2, added: electrical stimulation", "how to read": "reference: pre-drug control", "quantity": "peak stimulus-induced K+ rise", "result": "116 ± 5%"}
{"SMILES": "C/C=C/Cn1c(Cc2cc(OC)c(OC)c(OC)c2)nc2c(N)ncnc21", "tested on": "Grp94", "assay": "binding, fluorescence polarization competition", "quantity": "Ki", "result": "22.8 ± 2 µM"}
{"SMILES": "COc1cc([C@@H]2c3cc4c(cc3[C@](O)(C3(O)CCOCC3)[C@H]3COC(=O)[C@H]23)OCO4)cc(OC)c1OC", "tested on": "Leishmania infantum", "assay": "Alamar Blue", "system": "HepG2", "how to read": "reference: CC50 HepG2 over EC50 amastigotes", "quantity": "selectivity index", "result": "> 17.1"}
{"SMILES": "CN(C)C(=O)Cn1cc(-c2ccc(-c3cncc4ccncc34)cc2)cn1", "tested on": "KG-1", "assay": "cell growth, viability", "quantity": "IC50", "result": "< 1 µM"}
{"SMILES": "COC(=O)[C@@H]1C(C=Nc2cc(C)ccc2O)=Cc2cc3c(cc2[C@H]1c1cc(OC)c(OC)c(OC)c1)OCO3", "tested on": "Leishmania infantum", "assay": "iRFP fluorescence", "system": "mouse splenocytes infected, amastigote, iRFP, ex vivo splenic explant", "conditions": "48 h", "quantity": "EC50", "result": "70.5 ± 3.7 µM"}
{"SMILES": "CCOc1ccccc1Nc1nnc(SCC(=O)Nc2cc(F)ccc2F)s1", "tested on": "A549 spheroids with human PBMCs", "conditions": "25 µM, 48 h, added: soluble anti-CD3", "how to read": "reference: anti-CD3 alone", "quantity": "IL-2 reduction", "result": "> 70%"}
{"note": "Some of these lines once more:"}
{"SMILES": "COc1cc([C@@H]2c3cc4c(cc3[C@@H](CC(C)(C)O)[C@H]3COC(=O)[C@H]23)OCO4)cc(OC)c1OC", "tested on": "Leishmania", "system": "mouse splenocytes", "how to read": "reference: CC50 over amastigote EC50", "quantity": "selectivity index", "result": 1.1}
{"SMILES": "CCOC(=O)C1=C(C)NC2=C(C(=O)CC(C)(C)C2)C1c1ccc(OCC(=O)NN=Cc2cccc(C=O)c2)cc1OCC(=O)NN=Cc1cccc(C=O)c1 (stereo not shown)", "tested on": "Bacillus megaterium", "system": "DSM 32", "conditions": "concentration not given, 24 h", "quantity": "inhibition zone diameter", "result": "5.5 ± 0.1 mm"}
